Results pooled from the literature.
Lines come from different studies, so protocols differ. ± marks the error that the study gave.
Tumor necrosis factor receptor superfamily member 9/Nectin-4: Tumor necrosis factor receptor superfamily member 9/Nectin-4 (Homo sapiens, UniProt Q07011+Q96NY8)
Sequence of UniProt Q07011 (whole entry, looked up): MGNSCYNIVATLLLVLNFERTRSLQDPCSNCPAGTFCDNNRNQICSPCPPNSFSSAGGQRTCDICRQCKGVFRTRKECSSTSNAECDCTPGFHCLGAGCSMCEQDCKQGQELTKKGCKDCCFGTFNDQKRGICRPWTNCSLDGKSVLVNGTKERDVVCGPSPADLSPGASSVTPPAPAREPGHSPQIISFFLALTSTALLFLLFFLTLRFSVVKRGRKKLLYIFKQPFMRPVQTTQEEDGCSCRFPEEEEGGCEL
Sequence of UniProt Q96NY8 (whole entry, looked up): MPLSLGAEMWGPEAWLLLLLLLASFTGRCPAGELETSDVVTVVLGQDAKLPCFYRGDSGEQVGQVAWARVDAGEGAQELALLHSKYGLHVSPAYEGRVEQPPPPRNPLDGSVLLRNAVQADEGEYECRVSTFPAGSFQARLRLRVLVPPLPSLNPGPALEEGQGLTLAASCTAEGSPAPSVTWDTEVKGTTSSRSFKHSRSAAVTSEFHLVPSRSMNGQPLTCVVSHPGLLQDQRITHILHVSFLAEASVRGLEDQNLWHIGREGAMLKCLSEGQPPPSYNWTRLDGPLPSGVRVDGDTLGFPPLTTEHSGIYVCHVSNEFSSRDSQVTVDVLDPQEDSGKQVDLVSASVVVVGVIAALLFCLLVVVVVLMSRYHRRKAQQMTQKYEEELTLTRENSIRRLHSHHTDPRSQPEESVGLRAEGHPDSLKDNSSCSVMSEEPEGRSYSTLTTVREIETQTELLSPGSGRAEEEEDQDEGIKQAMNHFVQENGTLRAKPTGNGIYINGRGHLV
sdiA: Regulatory protein SdiA (sdiA, Escherichia coli, UniProt P07026)
Sequence of UniProt P07026 (whole entry, looked up): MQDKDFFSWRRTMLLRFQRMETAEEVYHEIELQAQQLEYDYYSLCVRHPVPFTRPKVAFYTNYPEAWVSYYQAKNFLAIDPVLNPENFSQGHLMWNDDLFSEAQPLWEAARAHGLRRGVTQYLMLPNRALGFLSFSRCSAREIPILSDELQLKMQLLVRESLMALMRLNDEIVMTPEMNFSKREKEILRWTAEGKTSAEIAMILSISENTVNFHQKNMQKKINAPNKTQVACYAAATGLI
H2-D1 17: H-2 class I histocompatibility antigen, D-B alpha chain, 17 (H2-D1, Mus musculus, UniProt P01899)
Sequence of UniProt P01899 (whole entry, looked up): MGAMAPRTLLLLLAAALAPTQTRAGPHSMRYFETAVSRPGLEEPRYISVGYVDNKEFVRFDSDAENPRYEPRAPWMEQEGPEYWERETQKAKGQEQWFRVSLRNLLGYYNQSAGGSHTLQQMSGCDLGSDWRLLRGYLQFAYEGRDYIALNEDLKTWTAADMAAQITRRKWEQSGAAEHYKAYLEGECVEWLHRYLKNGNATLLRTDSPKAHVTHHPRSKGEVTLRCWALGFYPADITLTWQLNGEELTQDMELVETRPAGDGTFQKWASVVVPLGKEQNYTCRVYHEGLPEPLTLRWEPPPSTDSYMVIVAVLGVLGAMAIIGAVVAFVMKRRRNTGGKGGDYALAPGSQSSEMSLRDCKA
Sequence of UniProt P07700 (whole entry, unmodified, looked up): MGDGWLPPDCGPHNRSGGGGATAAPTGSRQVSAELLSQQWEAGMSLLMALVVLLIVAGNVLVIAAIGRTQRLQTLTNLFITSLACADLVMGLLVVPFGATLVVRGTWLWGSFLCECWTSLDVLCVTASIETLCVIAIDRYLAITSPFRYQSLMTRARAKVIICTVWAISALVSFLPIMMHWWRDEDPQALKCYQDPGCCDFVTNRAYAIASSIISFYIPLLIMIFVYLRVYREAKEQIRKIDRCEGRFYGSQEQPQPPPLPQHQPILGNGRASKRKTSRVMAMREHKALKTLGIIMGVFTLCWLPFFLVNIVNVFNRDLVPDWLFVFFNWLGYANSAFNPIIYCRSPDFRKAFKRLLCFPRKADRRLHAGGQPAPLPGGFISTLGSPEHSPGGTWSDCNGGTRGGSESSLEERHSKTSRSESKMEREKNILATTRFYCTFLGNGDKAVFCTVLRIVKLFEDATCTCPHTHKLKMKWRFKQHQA
Sequence of UniProt P03372 (whole entry, looked up): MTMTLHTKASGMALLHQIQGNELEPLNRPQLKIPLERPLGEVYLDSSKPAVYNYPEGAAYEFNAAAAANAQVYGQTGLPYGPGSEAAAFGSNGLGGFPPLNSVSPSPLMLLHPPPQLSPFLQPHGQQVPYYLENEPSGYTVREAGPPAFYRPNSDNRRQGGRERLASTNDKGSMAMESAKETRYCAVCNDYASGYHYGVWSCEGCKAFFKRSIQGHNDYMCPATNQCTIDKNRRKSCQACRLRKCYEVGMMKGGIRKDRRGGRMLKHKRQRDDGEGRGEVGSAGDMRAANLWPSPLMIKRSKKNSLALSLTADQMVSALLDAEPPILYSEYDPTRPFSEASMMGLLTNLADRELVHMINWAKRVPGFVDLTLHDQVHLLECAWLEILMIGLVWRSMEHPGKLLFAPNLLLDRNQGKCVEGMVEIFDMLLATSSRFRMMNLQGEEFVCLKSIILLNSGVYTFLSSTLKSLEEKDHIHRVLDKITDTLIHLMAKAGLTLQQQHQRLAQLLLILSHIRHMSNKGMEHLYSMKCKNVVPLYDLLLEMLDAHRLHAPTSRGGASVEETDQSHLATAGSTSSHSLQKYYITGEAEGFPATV
Sequence of UniProt Q704Y3 (whole entry, unmodified, looked up): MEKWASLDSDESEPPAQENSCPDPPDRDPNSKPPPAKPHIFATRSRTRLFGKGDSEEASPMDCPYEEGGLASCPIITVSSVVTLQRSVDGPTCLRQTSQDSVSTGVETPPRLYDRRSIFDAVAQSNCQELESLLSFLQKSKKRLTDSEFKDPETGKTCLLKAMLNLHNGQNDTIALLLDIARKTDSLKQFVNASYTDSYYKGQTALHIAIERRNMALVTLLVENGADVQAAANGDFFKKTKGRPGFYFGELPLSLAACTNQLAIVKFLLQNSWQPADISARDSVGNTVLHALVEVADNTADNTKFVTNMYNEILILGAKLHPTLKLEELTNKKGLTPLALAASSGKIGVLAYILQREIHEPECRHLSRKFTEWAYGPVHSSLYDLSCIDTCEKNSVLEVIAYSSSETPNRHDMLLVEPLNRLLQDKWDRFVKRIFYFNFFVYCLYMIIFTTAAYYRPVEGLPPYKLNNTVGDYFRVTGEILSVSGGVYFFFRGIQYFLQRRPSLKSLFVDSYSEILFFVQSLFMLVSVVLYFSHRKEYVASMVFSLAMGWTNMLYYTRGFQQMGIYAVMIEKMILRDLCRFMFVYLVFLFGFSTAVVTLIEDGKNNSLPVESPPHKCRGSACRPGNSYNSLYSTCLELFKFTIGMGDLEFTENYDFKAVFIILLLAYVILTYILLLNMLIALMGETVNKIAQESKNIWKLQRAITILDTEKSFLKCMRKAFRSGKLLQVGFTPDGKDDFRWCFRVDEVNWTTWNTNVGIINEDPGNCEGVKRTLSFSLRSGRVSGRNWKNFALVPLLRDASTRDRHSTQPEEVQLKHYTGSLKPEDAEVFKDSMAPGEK

Structure (SMILES) | target or system | test | test system | conditions | scale | measurement | result
CCCC[C@@H]1NC(=O)[C@H](Cc2ccc(O)cc2)NC(=O)[C@@H]2CCCN2C(=O)[C@H](CC(=O)O)NC(=O)[C@H](C)NC(=O)[C@H](Cc2ccccc2)NC(=O)[C@@H]2CSCCC(=O)N3CN(CN(C3)C(=O)CCSC[C@@H](C(=O)N[C@@H](C)C(N)=O)NC1=O)C(=O)CCSC[C@H](NC(C)=O)C(=O)N[C@@H](CC(C)(C)C)C(=O)N1CCC[C@H]1C(=O)N[C@@H](CCC(=O)O)C(=O)N[C@H](CCCCNC(=O)CCc1cn(CCOCCOCCOCCN(CCOCCOCCOCCn3cc(CCC(=O)NCCCC[C@H]4NC(=O)[C@H](CCC(=O)O)NC(=O)[C@@H]5CCCN5C(=O)[C@H](CC(C)(C)C)NC(=O)[C@@H](NC(C)=O)CSCCC(=O)N5CN6CN(C5)C(=O)CCSC[C@H](NC(=O)[C@H](Cc5ccc(O)cc5)NC(=O)[C@@H]5CCCN5C4=O)C(=O)N[C@@H](Cc4ccccc4)C(=O)N[C@@H](C)C(=O)N[C@@H](CC(=O)O)C(=O)N4CCC[C@H]4C(=O)N[C@@H](Cc4ccc(O)cc4)C(=O)N[C@@H](CCCC)C(=O)N[C@H](C(=O)N[C@@H](C)C(N)=O)CSCCC6=O)nn3)CCOCCOCCOCC(=O)NCCCNC(=O)Cn3cc(CCC(=O)NCCCNC(=O)COCCOCCOCCN(CCOCCOCCOCCn4cc(CCC(=O)NCCC(=O)N[C@H]5CSCCC(=O)N6CN7CN(C6)C(=O)CCSC[C@H](NC(=O)[C@@H](CC(=O)O)NC(=O)[C@H](Cc6cccc8ccccc68)NC(=O)[C@@H]6CCCN6C5=O)C(=O)N[C@@H](CCSC)C(=O)N[C@@H](CCCCNC(=N)N)C(=O)N[C@@H](CC(=O)O)C(=O)N[C@@H](Cc5c[nH]c6ccccc56)C(=O)N[C@@H](CO)C(=O)N[C@@H]([C@@H](C)O)C(=O)N5CCC[C@H]5C(=O)N5C[C@H](O)C[C@H]5C(=O)N[C@@H](Cc5c[nH]c6ccccc56)C(=O)N[C@H](C(N)=O)CSCCC7=O)nn4)CCOCCOCCOCCn4cc(CCC(=O)NCCC(=O)N[C@H]5CSCCC(=O)N6CN7CN(C6)C(=O)CCSC[C@H](NC(=O)[C@@H](CC(=O)O)NC(=O)[C@H](Cc6cccc8ccccc68)NC(=O)[C@@H]6CCCN6C5=O)C(=O)N[C@@H](CCSC)C(=O)N[C@@H](CCCCNC(=N)N)C(=O)N[C@@H](CC(=O)O)C(=O)N[C@@H](Cc5c[nH]c6ccccc56)C(=O)N[C@@H](CO)C(=O)N[C@@H]([C@@H](C)O)C(=O)N5CCC[C@H]5C(=O)N5C[C@H](O)C[C@H]5C(=O)N[C@@H](Cc5c[nH]c6ccccc56)C(=O)N[C@H](C(N)=O)CSCCC7=O)nn4)nn3)nn1)C(=O)N1CCC[C@H]1C(=O)N[C@@H](Cc1ccc(O)cc1)C(=O)N2 | Tumor necrosis factor receptor superfamily member 9/Nectin-4 | reporter gene, agonist | HT-1376 reporter coculture | – | – | EC50 | 0.052 nM
CCCCCC(=O)CC(=O)N[C@H]1CCOC1=O | sdiA | – | – | – | – | EC50 | 0.78 nM
COc1ccc(C[C@@H](C)NC[C@H](O)c2ccc(O)c3[nH]c(=O)ccc23)cc1 | ADRB1 (Meleagris gallopavo, UniProt P07700, C116L/C358A/del244-271/del277-278) | CRE-SPAP reporter gene, agonist | CHO cells | – | – | EC50 | 0.676 nM
CC[C@H](C)[C@H](NC(=O)[C@H](C)NC(=O)[C@@H](NC(=O)[C@H](C)NC(=O)[C@H](C)NC(=O)[C@H](CC(N)=O)NC(=O)[C@H](Cc1c[nH]c2ccccc12)NC(=O)[C@@H](NC(=O)[C@H](CO)NC(=O)[C@@H](N)CO)C(C)C)[C@@H](C)O)C(=O)O | H2-D1 17 | H-2D stabilisation, flow cytometry | RMA-S TAP-deficient | overnight | – | EC50 | 5000 nM
Cn1cnc(N)c2ncnc1-2 | human coronavirus OC43 | virus-induced cell killing | MRC-5 | screen | – | maximum inhibition | 2.57%
CCCC[C@@H]1NC(=O)[C@H](Cc2ccc(O)cc2)NC(=O)[C@@H]2CCCN2C(=O)[C@H](CCC(=O)O)NC(=O)[C@H](C)NC(=O)[C@H](Cc2ccccc2)NC(=O)[C@@H]2CSCCC(=O)N3CN(CN(C3)C(=O)CCSC[C@H](NC(C)=O)C(=O)N[C@@H](CC(C)(C)C)C(=O)N3CCC[C@H]3C(=O)N[C@@H](CCC(=O)O)C(=O)N[C@H](CCCCNC(=O)CCc3cn(CCOCCOCCOCCOCCOCCC(=O)N[C@H]4CSCCC(=O)N5CN6CN(C5)C(=O)CCSC[C@H](NC(=O)[C@@H](CC(=O)O)NC(=O)[C@H](Cc5cccc7ccccc57)NC(=O)[C@@H]5CCCN5C4=O)C(=O)N[C@@H](CCSC)C(=O)N[C@@H](CCCCNC(=N)N)C(=O)N[C@@H](CC(=O)O)C(=O)N[C@@H](Cc4c[nH]c5ccccc45)C(=O)N[C@@H](CO)C(=O)N[C@@H]([C@@H](C)O)C(=O)N4CCC[C@H]4C(=O)N4C[C@H](O)C[C@H]4C(=O)N[C@@H](Cc4c[nH]c5ccccc45)C(=O)N[C@H](C(N)=O)CSCCC6=O)nn3)C(=O)N3CCC[C@H]3C(=O)N[C@@H](Cc3ccc(O)cc3)C(=O)N2)C(=O)CCSC[C@@H](C(N)=O)NC1=O | Tumor necrosis factor receptor superfamily member 9/Nectin-4 | reporter gene, agonist | HT-1376 coculture with reporter cells | – | – | EC50 | 34 nM
CC(C)[C@H](NC(=O)[C@H](CO)NC(=O)[C@@H](N)CO)C(=O)N[C@@H](Cc1c[nH]c2ccccc12)C(=O)N[C@@H](CC(N)=O)C(=O)N[C@@H](C)C(=O)N[C@H](C(=O)N[C@H](C(=O)N[C@@H](C)C(=O)N[C@@H](C)C(=O)O)[C@@H](C)O)[C@@H](C)O | H2-D1 17 | H-2D stabilisation, flow cytometry | RMA-S TAP-deficient | overnight | – | EC50 | 40000 nM
CCCC[C@@H]1NC(=O)[C@H](Cc2ccc(O)cc2)NC(=O)[C@@H]2CCCN2C(=O)[C@H](CC(=O)O)NC(=O)[C@H](C)NC(=O)[C@H](Cc2ccccc2)NC(=O)[C@@H]2CSCCC(=O)N3CN(CN(C3)C(=O)CCSC[C@H](NC(C)=O)C(=O)N[C@@H](CC(C)(C)C)C(=O)N[C@@H](CCC(=O)O)C(=O)N[C@@H](CCC(=O)O)C(=O)N[C@H](CCCCNC(=O)CCc3cn(CCOCCOCCOCCN(CCOCCOCCOCCC(=O)N[C@H]4CSCCC(=O)N5CN6CN(C5)C(=O)CCSC[C@H](NC(=O)[C@@H](CC(=O)O)NC(=O)[C@H](Cc5cccc7ccccc57)NC(=O)[C@@H]5CCCN5C4=O)C(=O)N[C@@H](CCSC)C(=O)N[C@@H](CCCCNC(=N)N)C(=O)N[C@@H](CC(=O)O)C(=O)N[C@@H](Cc4c[nH]c5ccccc45)C(=O)N[C@@H](CO)C(=O)N[C@@H]([C@@H](C)O)C(=O)N4CCC[C@H]4C(=O)N4C[C@H](O)C[C@H]4C(=O)N[C@@H](Cc4c[nH]c5ccccc45)C(=O)N[C@H](C(N)=O)CSCCC6=O)CCOCCOCCOCCn4cc(CCC(=O)NCCCC[C@H]5NC(=O)[C@H](CCC(=O)O)NC(=O)[C@H](CCC(=O)O)NC(=O)[C@H](CC(C)(C)C)NC(=O)[C@@H](NC(C)=O)CSCCC(=O)N6CN7CN(C6)C(=O)CCSC[C@H](NC(=O)[C@H](Cc6ccc(O)cc6)NC(=O)[C@@H]6CCCN6C5=O)C(=O)N[C@@H](Cc5ccccc5)C(=O)N[C@@H](C)C(=O)N[C@@H](CC(=O)O)C(=O)N5CCC[C@H]5C(=O)N[C@@H](Cc5ccc(O)cc5)C(=O)N[C@@H](CCCC)C(=O)N[C@H](C(N)=O)CSCCC7=O)nn4)nn3)C(=O)N3CCC[C@H]3C(=O)N[C@@H](Cc3ccc(O)cc3)C(=O)N2)C(=O)CCSC[C@@H](C(N)=O)NC1=O | Tumor necrosis factor receptor superfamily member 9/Nectin-4 | reporter gene, agonist | HT-1376 coculture with reporter cells | – | – | EC50 | 0.34 nM
Cc1ccc(Nc2ccnc(N3CCCC3C(=O)NCCCc3ccccc3)n2)cc1 (centres unmarked) | Vero-E6 | CellTiter-Glo ATP | – | 72 h, first round 5-point | reference: DMSO 0%, hyamine -100%, more negative, more toxic | maximum response | -7.73%
CCC(C)n1ncn(-c2ccc(N3CCN(c4ccc(OCC5COC(Cn6cncn6)(c6ccc(Cl)cc6Cl)O5)cc4)CC3)cc2)c1=O (centres unmarked) | human coronavirus OC43 | virus-induced cell killing | MRC-5 | screen | – | maximum inhibition | 11%
CC[C@H](C)[C@H](NC(=O)[C@H](C)NC(=O)[C@@H](NC(=O)[C@@H](NC(=O)[C@H](C)NC(=O)[C@H](CC(N)=O)NC(=O)[C@H](Cc1c[nH]c2ccccc12)NC(=O)[C@@H](NC(=O)[C@H](C)NC(=O)[C@@H](N)CO)C(C)C)[C@@H](C)O)[C@@H](C)O)C(=O)O | H2-D1 17 | H-2D stabilisation, flow cytometry | RMA-S TAP-deficient | overnight | – | EC50 | 2000 nM
CCCCOCCOP(=O)(OCCOCCCC)OCCOCCCC | Estrogen receptor (ESR1, Homo sapiens, UniProt P03372) | – | human cells | – | – | EC50 | > 100000 nM
Cc1cc(SCc2sc(-c3ccc(C(F)(F)F)c(F)c3)nc2C)ccc1OCC(=O)O | Peroxisome proliferator-activated receptor delta (Rattus norvegicus, UniProt Q62879) | reporter gene, agonist, luciferase reporter | rat | serum-free | – | EC50 | 7 nM
CC(CCc1ccc(O)cc1)NCCc1ccc(O)c(O)c1 (centres unmarked) | ADRB1 (Meleagris gallopavo, UniProt P07700, C116L) | CRE-SPAP reporter gene, agonist | CHO cells | – | – | EC50 | 162 nM
CCCC[C@@H]1NC(=O)[C@H](Cc2ccc(O)cc2)NC(=O)[C@@H]2CCCN2C(=O)[C@H](CC(=O)O)NC(=O)[C@H](C)NC(=O)[C@H](Cc2ccccc2)NC(=O)[C@@H]2CSCCC(=O)N3CN(CN(C3)C(=O)CCSC[C@H](NC(C)=O)C(=O)N[C@@H](CC(C)(C)C)C(=O)N3CCC[C@H]3C(=O)N[C@@H](CCC(=O)O)C(=O)N[C@H](CCCCNC(=O)CCc3cn(CCOCCOCCOCCOCCOCCC(=O)N[C@H]4CSCCC(=O)N5CN6CN(C5)C(=O)CCSC[C@H](NC(=O)[C@@H](CC(=O)O)NC(=O)[C@H](Cc5cccc7ccccc57)NC(=O)[C@@H]5CCCN5C4=O)C(=O)N[C@@H](CCSC)C(=O)N[C@@H](CCCCNC(=N)N)C(=O)N[C@@H](CC(=O)O)C(=O)N[C@@H](Cc4c[nH]c5ccccc45)C(=O)N[C@@H](CO)C(=O)N[C@@H]([C@@H](C)O)C(=O)N4CCC[C@H]4C(=O)N4C[C@H](O)C[C@H]4C(=O)N[C@@H](Cc4c[nH]c5ccccc45)C(=O)N[C@H](C(N)=O)CSCCC6=O)nn3)C(=O)N3CCC[C@H]3C(=O)N[C@@H](Cc3ccc(O)cc3)C(=O)N2)C(=O)CCSC[C@@H](C(N)=O)NC1=O | Tumor necrosis factor receptor superfamily member 9/Nectin-4 | reporter gene, agonist | HT-1376 coculture with reporter cells | – | – | EC50 | 0.64 nM
CCCCC/C=C\C/C=C\C/C=C\C/C=C\CCCC(=O)NCCO | Transient receptor potential cation channel subfamily V member 1 (Trpv1, Mus musculus, UniProt Q704Y3, N552L) | ion current, agonist, whole-cell patch clamp | – | 24 °C, N552L, +80 mV | – | EC50 | 6610 ± 2350 nM
CCCCCCCCCCCCCCCC(=O)N[C@H]1CCOC1=O | sdiA | – | – | – | – | EC50 | 800 nM

For quick reference, copied from above:
Structure (SMILES) | target or system | test | test system | conditions | scale | measurement | result
CCC(C)n1ncn(-c2ccc(N3CCN(c4ccc(OCC5COC(Cn6cncn6)(c6ccc(Cl)cc6Cl)O5)cc4)CC3)cc2)c1=O (centres unmarked) | human coronavirus OC43 | virus-induced cell killing | MRC-5 | screen | – | maximum inhibition | 11%
